{"data": "Experimental data gathered from unrelated publications", "note": "Compare with care: the assays were run in different laboratories. Numbers after ± are the reported error."}
{"Compound": "CCC1=[N+]2N=C(/C=C/c3ccccc3)C(=O)O[B-]2(c2ccccc2)Oc2cc(N(CC)CC)ccc21 (stereo not drawn)", "test system": "toluene", "fluorescence quantum yield": 0.58}
{"Compound": "CN1CCN(c2ccc3[nH]c(-c4ccc5[nH]c(-c6ccc(OCCCCNC(=O)c7cccc8c7C(=O)OC87c8ccc(N(C)C)cc8C(C)(C)c8cc(N(C)C)ccc87)cc6)nc5c4)nc3c2)CC1", "test system": "PBS with 0.1% SDS", "fluorescence quantum yield": "0.67 ± 0.03"}
{"Compound": "CCC1=[N+]2N=C(c3ccccc3)C(=O)O[B-]2(c2ccccc2)Oc2cc(OC)ccc21 (stereo not drawn)", "test system": "toluene", "fluorescence quantum yield": 0.04}
{"Compound": "CCCCN1C(=O)c2cccc3c(NCCCCCN4CCOCC4)ccc(c23)C1=O", "test system": "DMSO", "fluorescence quantum yield": 1}
{"Compound": "O=c1cc(/C=C/c2ccc(N3CCCC3)cc2)oc(/C=C/c2ccc(N3CCCC3)cc2)c1", "test system": "acetonitrile/water 1:19 v/v", "conditions": "10 µM, 298 K, aggregate nanoparticle suspension", "fluorescence quantum yield": 0.12}
{"Compound": "CCCCN1C(=O)c2cccc3c(NCCCCCCCCCCN4CCOCC4)ccc(c23)C1=O", "test system": "methanol", "fluorescence quantum yield": 0.75}
{"Compound": "CN1CCN(c2ccc(/C=C/c3cc(=O)cc(/C=C/c4ccc(N5CCN(C)CC5)cc4)o3)cc2)CC1", "test system": "acetonitrile/water 1:19 v/v", "conditions": "10 µM, 298 K, aggregate nanoparticle suspension", "fluorescence quantum yield": 0.0005}
{"Compound": "COC(=O)c1ccccc1-c1c2ccc(=[N+](C)C)cc-2oc2c1ccc1cccc(O)c12", "test system": "12.5 mM aqueous NaOH", "conditions": "pH 12.1, 10% DMSO", "fluorescence quantum yield": "0.17%"}
{"Compound": "Nc1cccc2ccc(/C=C/C(=O)c3ccc(C(F)(F)F)cc3)cc12", "test system": "toluene", "how to read": "baseline: coumarin 153 in ethanol", "fluorescence quantum yield": "38.2 ± 1.9%"}
{"Compound": "C=Cc1cccc([B-]23OC(=O)C(c4ccccc4)=N[N+]2=Cc2ccc(N(CC)CC)cc2O3)c1 (stereo not drawn)", "test system": "toluene", "fluorescence quantum yield": 0.68}
{"Compound": "O=c1cc(/C=C/c2ccc(N3CCOCC3)cc2)oc(/C=C/c2ccc(N3CCOCC3)cc2)c1", "test system": "acetonitrile/water 1:19 v/v", "conditions": "10 µM, 298 K, aggregate nanoparticle suspension", "fluorescence quantum yield": 0.004}
{"Compound": "CCC1=[N+]2N=C(/C=C/C=C/c3ccc(C(F)(F)F)cc3)C(=O)O[B-]2(c2ccccc2)Oc2cc(N(CC)CC)ccc21 (stereo not drawn)", "test system": "toluene", "fluorescence quantum yield": 0.44}
{"Compound": "CN(C)c1ccc(/C=C/c2cc(=O)cc(/C=C/c3ccc(N(C)C)cc3)o2)cc1", "test system": "acetonitrile", "conditions": "10 µM, 298 K", "how to read": "baseline: 9,10-diphenylanthracene in toluene", "fluorescence quantum yield": 0.006}
{"Compound": "COc1ccc2nc(-c3ccc(N(C)C)cc3)sc2c1", "test system": "PBS", "conditions": "free dye", "fluorescence quantum yield": 0.055}
{"Compound": "CC1(C)C(=CC=C2CCCC(C=CC3=[N+](CCC[N+](C)(C)C)c4ccc(S(=O)(=O)O)cc4C3(C)C)=C2SCCOCCOCCC(=O)O)N(CCC[N+](C)(C)C)c2ccc(S(=O)(=O)O)cc21", "test system": "PBS", "conditions": "pH 7.4", "fluorescence quantum yield": "6.5%"}
{"Compound": "C=Cc1ccc([B-]23OC(=O)C(c4ccccc4)=N[N+]2=Cc2ccc(N(CC)CC)cc2O3)cc1 (stereo not drawn)", "test system": "toluene", "fluorescence quantum yield": 0.62}
{"Compound": "CCCCN1C(=O)c2cccc3c(NCCN4CCOCC4)ccc(c23)C1=O", "test system": "acetonitrile", "fluorescence quantum yield": 0.19}
{"Compound": "CCN(CC)c1ccc2c(c1)O[B-]1(c3ccccc3OC)OC(=O)C(c3ccccc3)=N[N+]1=C2 (stereo not drawn)", "test system": "toluene", "fluorescence quantum yield": 0.58}
{"Compound": "CCCCN1C(=O)c2cccc3c(NCCCCCCCCN4CCOCC4)ccc(c23)C1=O", "test system": "dichloromethane", "fluorescence quantum yield": 0.92}
{"Compound": "C=Cc1ccccc1[B-]12OC(=O)C(c3ccccc3)=N[N+]1=Cc1ccc(N(CC)CC)cc1O2 (stereo not drawn)", "test system": "toluene", "fluorescence quantum yield": 0.64}
{"Compound": "CN1CCN(c2ccc3[nH]c(-c4ccc5[nH]c(-c6ccc(OCCCCNC(=O)c7cccc8c7C(=O)OC87c8ccc(N(C)C)cc8[Si](C)(C)c8cc(N(C)C)ccc87)cc6)nc5c4)nc3c2)CC1", "test system": "PBS", "conditions": "1 µM, 2 h, room temperature, together with: 20 µM hairpin DNA", "fluorescence quantum yield": "0.29 ± 0.11"}
{"note": "A few entries again:"}
{"Compound": "CCC1=[N+]2N=C(/C=C/c3ccccc3)C(=O)O[B-]2(c2ccccc2)Oc2cc(N(CC)CC)ccc21 (stereo not drawn)", "test system": "toluene", "fluorescence quantum yield": 0.58}
{"Compound": "CN1CCN(c2ccc3[nH]c(-c4ccc5[nH]c(-c6ccc(OCCCCNC(=O)c7cccc8c7C(=O)OC87c8ccc(N(C)C)cc8C(C)(C)c8cc(N(C)C)ccc87)cc6)nc5c4)nc3c2)CC1", "test system": "PBS with 0.1% SDS", "fluorescence quantum yield": "0.67 ± 0.03"}
